Measured values from different studies.
Each line is one published result; not all experiments were run side by side. ± marks the error that the study gave.
OPRL1: Nociceptin receptor (OPRL1, Homo sapiens, UniProt P41146)
rep R3428I 3C-like proteinase: Replicase polyprotein 1ab, 3C-like proteinase (rep, Severe acute respiratory syndrome-related coronavirus, UniProt P0C6X7, R3428I)
N/L: N/L (Lymphocytic choriomeningitis virus, UniProt P09992+P14240)

By UniProt entry, the sequences of proteins in these tests, tags left out. Residues count along the entry.
UniProt P41146, whole entry: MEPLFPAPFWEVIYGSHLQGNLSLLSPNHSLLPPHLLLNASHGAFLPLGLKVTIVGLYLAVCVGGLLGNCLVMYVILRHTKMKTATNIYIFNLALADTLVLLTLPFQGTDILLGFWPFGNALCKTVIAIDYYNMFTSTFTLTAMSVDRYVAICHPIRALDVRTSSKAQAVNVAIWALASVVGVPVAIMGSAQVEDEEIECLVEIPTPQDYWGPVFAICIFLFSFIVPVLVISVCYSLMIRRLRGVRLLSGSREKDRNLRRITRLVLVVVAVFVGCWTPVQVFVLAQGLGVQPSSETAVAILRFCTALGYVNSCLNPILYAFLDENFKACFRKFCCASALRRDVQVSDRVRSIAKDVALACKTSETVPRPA
UniProt P04757, 26-499 limits assumed: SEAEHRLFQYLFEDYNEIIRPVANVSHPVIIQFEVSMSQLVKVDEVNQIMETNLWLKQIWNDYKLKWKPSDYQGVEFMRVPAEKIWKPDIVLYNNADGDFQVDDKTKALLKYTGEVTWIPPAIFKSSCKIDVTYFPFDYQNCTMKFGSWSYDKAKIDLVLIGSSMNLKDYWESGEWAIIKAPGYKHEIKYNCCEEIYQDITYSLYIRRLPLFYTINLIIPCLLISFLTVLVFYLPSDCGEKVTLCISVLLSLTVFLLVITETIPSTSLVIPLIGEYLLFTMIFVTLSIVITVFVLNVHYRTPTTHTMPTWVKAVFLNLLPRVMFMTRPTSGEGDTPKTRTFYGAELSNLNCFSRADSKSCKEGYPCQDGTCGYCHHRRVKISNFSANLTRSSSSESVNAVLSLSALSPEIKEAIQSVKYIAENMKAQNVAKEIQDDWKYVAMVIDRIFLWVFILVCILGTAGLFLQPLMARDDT
UniProt P12390, 25-500 limits assumed: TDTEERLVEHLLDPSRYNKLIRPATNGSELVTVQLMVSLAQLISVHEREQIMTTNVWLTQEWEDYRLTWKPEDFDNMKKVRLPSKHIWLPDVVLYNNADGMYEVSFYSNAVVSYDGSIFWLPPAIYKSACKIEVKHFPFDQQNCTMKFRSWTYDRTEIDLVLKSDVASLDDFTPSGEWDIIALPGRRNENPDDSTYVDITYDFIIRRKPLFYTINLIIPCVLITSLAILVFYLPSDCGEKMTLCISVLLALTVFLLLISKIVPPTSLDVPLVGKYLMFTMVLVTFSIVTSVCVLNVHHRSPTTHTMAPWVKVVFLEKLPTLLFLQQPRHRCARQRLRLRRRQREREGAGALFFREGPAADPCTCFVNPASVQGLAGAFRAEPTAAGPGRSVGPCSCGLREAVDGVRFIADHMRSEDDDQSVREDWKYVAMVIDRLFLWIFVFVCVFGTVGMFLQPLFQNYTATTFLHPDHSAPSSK
UniProt P35372, whole entry: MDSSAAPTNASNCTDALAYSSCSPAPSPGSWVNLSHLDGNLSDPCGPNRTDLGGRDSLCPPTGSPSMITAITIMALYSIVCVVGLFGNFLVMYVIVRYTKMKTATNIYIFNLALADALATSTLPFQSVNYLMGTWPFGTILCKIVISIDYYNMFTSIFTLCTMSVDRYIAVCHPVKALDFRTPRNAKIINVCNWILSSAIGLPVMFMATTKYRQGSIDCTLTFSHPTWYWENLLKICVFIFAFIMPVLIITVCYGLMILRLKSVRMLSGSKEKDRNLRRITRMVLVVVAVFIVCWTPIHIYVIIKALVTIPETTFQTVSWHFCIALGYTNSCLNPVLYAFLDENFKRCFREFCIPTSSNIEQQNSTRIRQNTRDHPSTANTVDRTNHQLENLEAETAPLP
UniProt Q8N3R9, 256-336 F318W limits assumed: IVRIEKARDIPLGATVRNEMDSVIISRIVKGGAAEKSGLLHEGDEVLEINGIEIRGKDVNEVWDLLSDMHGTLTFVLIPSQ
UniProt P21462, whole entry: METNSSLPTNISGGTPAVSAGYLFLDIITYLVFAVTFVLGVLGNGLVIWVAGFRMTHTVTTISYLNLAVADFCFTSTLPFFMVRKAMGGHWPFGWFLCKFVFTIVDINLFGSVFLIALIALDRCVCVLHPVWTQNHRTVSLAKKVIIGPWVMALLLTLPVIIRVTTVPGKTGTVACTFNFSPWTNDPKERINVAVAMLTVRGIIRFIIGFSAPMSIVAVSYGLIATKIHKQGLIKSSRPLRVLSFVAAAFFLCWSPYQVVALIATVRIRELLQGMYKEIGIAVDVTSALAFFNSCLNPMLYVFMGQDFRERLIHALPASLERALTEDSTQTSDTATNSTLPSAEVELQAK
UniProt Q869C3, whole entry, looked up: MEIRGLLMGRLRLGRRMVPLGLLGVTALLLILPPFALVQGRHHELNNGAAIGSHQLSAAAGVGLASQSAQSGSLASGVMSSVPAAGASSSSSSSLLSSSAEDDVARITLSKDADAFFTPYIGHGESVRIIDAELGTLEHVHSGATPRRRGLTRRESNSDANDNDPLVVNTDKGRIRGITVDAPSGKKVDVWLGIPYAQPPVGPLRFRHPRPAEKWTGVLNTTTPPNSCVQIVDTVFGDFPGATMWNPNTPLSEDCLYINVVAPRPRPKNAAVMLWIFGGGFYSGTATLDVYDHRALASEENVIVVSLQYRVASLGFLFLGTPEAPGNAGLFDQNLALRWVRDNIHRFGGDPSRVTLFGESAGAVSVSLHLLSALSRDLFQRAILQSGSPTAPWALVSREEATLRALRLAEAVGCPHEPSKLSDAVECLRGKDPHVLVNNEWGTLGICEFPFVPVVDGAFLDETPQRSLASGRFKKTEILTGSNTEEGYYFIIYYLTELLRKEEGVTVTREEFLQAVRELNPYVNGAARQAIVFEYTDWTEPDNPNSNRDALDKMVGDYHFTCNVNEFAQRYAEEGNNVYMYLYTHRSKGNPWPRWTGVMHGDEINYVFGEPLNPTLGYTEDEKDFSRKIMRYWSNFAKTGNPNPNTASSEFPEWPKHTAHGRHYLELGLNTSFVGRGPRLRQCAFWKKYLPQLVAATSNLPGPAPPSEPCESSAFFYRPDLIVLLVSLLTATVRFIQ
UniProt O75469, whole entry: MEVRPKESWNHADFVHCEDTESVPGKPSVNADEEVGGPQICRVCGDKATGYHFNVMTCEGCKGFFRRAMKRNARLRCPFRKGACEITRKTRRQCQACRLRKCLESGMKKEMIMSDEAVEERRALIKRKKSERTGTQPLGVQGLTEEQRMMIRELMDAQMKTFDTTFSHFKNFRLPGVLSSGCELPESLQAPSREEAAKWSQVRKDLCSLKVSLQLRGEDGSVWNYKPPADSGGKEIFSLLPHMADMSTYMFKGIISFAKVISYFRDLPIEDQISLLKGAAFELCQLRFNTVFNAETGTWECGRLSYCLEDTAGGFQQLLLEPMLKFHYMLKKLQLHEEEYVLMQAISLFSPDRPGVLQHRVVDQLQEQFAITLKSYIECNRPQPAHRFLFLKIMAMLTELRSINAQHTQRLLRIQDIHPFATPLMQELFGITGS
UniProt P41145, whole entry: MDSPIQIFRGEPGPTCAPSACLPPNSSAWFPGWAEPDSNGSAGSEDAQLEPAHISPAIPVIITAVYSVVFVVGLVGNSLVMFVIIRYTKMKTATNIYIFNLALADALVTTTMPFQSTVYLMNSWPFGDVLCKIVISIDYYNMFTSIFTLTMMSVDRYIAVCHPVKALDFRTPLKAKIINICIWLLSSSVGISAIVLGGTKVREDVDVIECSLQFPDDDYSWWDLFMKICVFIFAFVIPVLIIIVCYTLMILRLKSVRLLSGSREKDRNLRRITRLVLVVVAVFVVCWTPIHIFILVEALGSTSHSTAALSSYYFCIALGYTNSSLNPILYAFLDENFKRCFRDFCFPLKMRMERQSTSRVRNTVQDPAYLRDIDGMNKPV
UniProt P41144, whole entry: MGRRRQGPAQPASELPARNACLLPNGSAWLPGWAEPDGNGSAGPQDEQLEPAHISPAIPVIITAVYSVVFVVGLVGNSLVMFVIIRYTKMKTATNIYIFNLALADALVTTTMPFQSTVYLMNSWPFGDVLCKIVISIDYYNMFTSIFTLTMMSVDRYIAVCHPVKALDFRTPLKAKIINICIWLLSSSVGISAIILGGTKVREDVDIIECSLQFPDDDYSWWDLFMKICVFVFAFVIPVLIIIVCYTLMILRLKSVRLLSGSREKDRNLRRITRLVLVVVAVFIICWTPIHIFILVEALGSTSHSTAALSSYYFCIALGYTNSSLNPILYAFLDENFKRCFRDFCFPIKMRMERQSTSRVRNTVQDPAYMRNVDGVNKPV

Structure (SMILES) | target or system | assay | test system | setting | measurement | result
CC[C@H](C)[C@@H]1NC(=O)[C@H](CCC(=O)O)NC(=O)[C@@H]2CCCN2C(=O)[C@H](Cc2c[nH]cn2)NC(=O)[C@H](CCCCC(=O)O)NC(=O)[C@H](CC(C)C)NC(=O)[C@H](Cc2c[nH]cn2)NC(=O)[C@@H]2CSSC[C@H](NC(=O)CN)C(=O)N[C@@H](CSSC[C@@H](C(N)=O)NC1=O)C(=O)N[C@@H](CO)C(=O)N[C@@H](Cc1c[nH]cn1)C(=O)N1CCC[C@H]1C(=O)N[C@@H](C)C(=O)N2 | Neuronal acetylcholine receptor; alpha3/beta2 (Rattus norvegicus, UniProt P04757+P12390) | ion current, antagonist, two-electrode voltage clamp | Xenopus laevis oocytes | together with: 100 µM acetylcholine | IC50 | 0.57 nM
COC(=O)[C@@H](Cc1ccc(O)c(O)c1)OC(=O)[C@H]1c2c(/C=C/C(=O)O[C@H](Cc3ccc(O)c(O)c3)C(=O)O)ccc(O)c2O[C@@H]1c1ccc(O)c(O)c1 | Spike glycoprotein (Severe acute respiratory syndrome coronavirus 2, UniProt P0DTC2) | biolayer interferometry |  |  | Kd | 18600 nM
CCC1C(=O)N(C2CCN(CCCc3ccccc3)CC2)c2ccccc21 (centres unmarked) | Mu-type opioid receptor (OPRM1, Homo sapiens, UniProt P35372) | radioligand displacement |  | together with: [3H]DAMGO | Ki | 10.2 ± 0.26 nM
CC[C@H](C)[C@H](NC(=O)[C@H](CC(C)C)NC(=O)[C@H](CCCNC(=N)N)NC(=O)[C@H](CCC(=O)O)NC(=O)[C@H](CCSC)NC(=O)[C@H](C)NC(=O)[C@@H]1CCCN1C(=O)[C@@H]1CCCN1C(=O)[C@@H]1CCCN1C(=O)[C@H](CCSC)NC(=O)[C@H](CC(C)C)NC(=O)[C@H](CC(N)=O)NC(=O)[C@H](Cc1c[nH]c2ccccc12)NC(=O)[C@@H](N)CCSC)C(=O)O | Protein PALS1 (PALS1, Homo sapiens, UniProt Q8N3R9, F318W) | SPR |  | pH 7.4, 25 °C, together with: PALS1 PDZ F318W | Kd | 18000 ± 2000 nM
CC[C@H](C)[C@H](N)C(=O)N[C@@H](CC(=O)O)C(=O)N[C@@H](CCCNC(=N)N)C(=O)N[C@@H](CC(C)C)C(=O)N[C@@H](CC(N)=O)C(=O)N[C@@H](CCC(=O)O)C(=O)N[C@H](C(=O)N[C@@H](C)C(=O)N[C@@H](CCCCN)C(=O)N[C@@H](CC(N)=O)C(=O)N[C@@H](CC(C)C)C(=O)N[C@@H](CC(N)=O)C(=O)N[C@@H](CCC(=O)O)C(=O)N[C@@H](CO)C(=O)N[C@@H](CC(C)C)C(=O)N[C@H](C(=O)N[C@@H](CC(=O)O)C(=O)N[C@@H](CC(C)C)C(=O)N[C@@H](CCC(N)=O)C(=O)N[C@@H](CCC(=O)O)C(=O)N[C@@H](CC(C)C)C(=O)NCC(=O)N[C@@H](CCCCN)C(=O)N[C@@H](Cc1ccc(O)cc1)C(=O)N[C@@H](CCC(=O)O)C(=O)N[C@@H](CCC(N)=O)C(=O)N[C@@H](Cc1ccc(O)cc1)C(=O)N[C@H](C(=O)N[C@@H](CCCCN)C(=O)N[C@@H](Cc1c[nH]c2ccccc12)C(=O)N1CCC[C@H]1C(=O)N[C@@H](Cc1c[nH]c2ccccc12)C(=O)N[C@@H](Cc1ccc(O)cc1)C(=O)N[C@H](C(=O)N[C@@H](Cc1c[nH]c2ccccc12)C(=O)N[C@@H](CC(C)C)C(=O)O)C(C)C)[C@@H](C)CC)[C@@H](C)CC)C(C)C | fMet-Leu-Phe receptor (FPR1, Homo sapiens, UniProt P21462) | binding, competition binding |  | 4 °C, together with: formyl-Nle-Leu-Phe-Nle-Tyr-Lys-FITC 0.3 nM | Ki | 3270 ± 250 nM
CCC1C(=O)N(C2CCN(Cc3cccc4[nH]ccc34)CC2)c2ccccc21 (centres unmarked) | OPRL1 | agonist | cell membranes |  | EC50 | 82 ± 16.4 nM
NC12CC3CC(CC(C3)C1)C2 | Influenza A virus | viral replication | MDCK, A/Swine/Illinois/21-1230/2009 |  | EC50 | > 100000 nM
CCOP(=O)(OCC)Oc1ccc([N+](=O)[O-])cc1 | Acetylcholinesterase (Ace, Anopheles gambiae, UniProt Q869C3) | enzyme inhibition, inhibitor |  | together with: acetylthiocholine 600 µM | Kd | 1000 ± 140 nM
CC(C)OP(=S)(OC(C)C)SCCNS(=O)(=O)c1ccccc1 | Nuclear receptor subfamily 1 group I member 2 (NR1I2, Homo sapiens, UniProt O75469) | reporter gene, agonist | HepG2 | 24 h, qHTS primary screen | EC50 | 5400 nM
O=C1Cc2ccccc2N1C1CCN([C@@H]2CC[C@@H]3CCCc4cccc2c43)CC1 | Kappa-type opioid receptor (OPRK1, Homo sapiens, UniProt P41145) | radioligand displacement |  | together with: tritiated U-69593 | Ki | 814 ± 35.6 nM
O=C(O)c1ccc(Cc2cccs2)cc1 | Ricin, A chain (Ricinus communis, UniProt P02879) | binding, SPR |  |  | Kd | 404000 nM
CN(C)[C@]1(c2ccccc2)CC[C@]2(CC1)OCCc1c3cc(F)ccc3[nH]c12 | OPRL1 | cAMP, agonist |  | human receptor | EC50 | 45.5 ± 10.5 nM
COc1cccc(/C=C/C(=O)N[C@H](COC(=O)c2ccccc2)C(=O)NC2CCCCC2)c1 | rep R3428I 3C-like proteinase | enzyme activity, inhibitor, HPLC substrate depletion |  | pH 4.0 | IC50 | 85000 nM
Fc1ccc(CNc2ncnc3ccc(F)cc23)cc1 | N/L | viral replication, Gaussia luciferase reporter |  |  | EC50 | 8630 nM
CCC1C(=O)N(C2CCN([C@H]3CC[C@@H]4CCCc5cccc3c54)CC2)c2ccccc21 (relative stereo) | OPRL1 | agonist | cell membranes |  | EC50 | 21.7 ± 5.6 nM
Cc1cc(N)c2ccccc2[n+]1CCCCCCCCCC[n+]1c(C)cc(N)c2ccccc21 | N/L | viral replication, Gaussia luciferase reporter |  |  | EC50 | 1090 nM
O=C(/C=C/c1ccccc1)N[C@@H](COC(=O)/C=C/c1ccccc1)C(=O)NC1CCCCC1 | rep R3428I 3C-like proteinase | enzyme activity, inhibitor, HPLC substrate depletion |  | pH 4.0 | IC50 | 85000 nM
CCC1C(=O)N(C2CCN(C3CCc4ccccc4C3)CC2)c2ccccc21 (centres unmarked) | OPRL1 | agonist | cell membranes |  | EC50 | 27.9 ± 17.1 nM
O=C(/C=C/c1ccccc1)N[C@H](COC(=O)c1ccccc1)C(=O)NCC1CCCCC1 | rep R3428I 3C-like proteinase | enzyme activity, inhibitor, HPLC substrate depletion |  | pH 4.0 | IC50 | 430000 nM
O=CN1CC[C@]23c4c5ccc(O)c4O[C@H]2[C@@H](O)C=C[C@H]3[C@H]1C5 | Kappa-type opioid receptor (OPRK1, Cavia porcellus, UniProt P41144) | antagonist | guinea pig ileum |  | Kb | 1890 ± 300 nM
